Results from different studies.
Protocols differ between the studies behind these lines. Numbers after ± are the reported error.

| SMILES | cell line | assay | setting | how to read | measurement | result |
| --- | --- | --- | --- | --- | --- | --- |
| CO[C@H]1[C@H](O[C@H]([C@H]2O[C@@H](n3ccc(=O)[nH]c3=O)[C@H](O)[C@@H]2O)[C@H](NCCCNC(=O)[C@@H](NC(=O)[C@@H](NC(=O)N[C@H](C(=O)O)C(C)C)[C@@H]2CCN=C(N)N2)[C@@H](OC(=O)CCCCCCCCCCCCN(O)C(=N)N)C(C)C)C(=O)O)O[C@H](CN)[C@H]1O | MDA-MB-231 | Boyden chamber | 2.5 µM, 24 h | – | migration inhibition | 98% |
| Nc1ncnc2n[nH]c(Nc3ccc(F)cc3)c12 | HeLa expressing Ub(G76V)-GFP | Ub(G76V)-GFP degradation, cycloheximide chase | 12 µM | – | inhibition | 71% |
| [Cl][64Cu][Cl] | BxPC-3 | – | 37 °C | – | internalized fraction | 20.6 ± 2.3% |
| COc1cc2c(cc1-c1c(C)noc1C)ncc1[nH]c(=O)n([C@H](C)c3ccccn3)c12 | HBL-1 | – | 0.1 µM, 120 h | – | viability | 122% |
| CC(C)C[C@@H](C=O)NC(=O)[C@H](CC(C)C)NC(=O)[C@H](CC(C)C)NC(=O)OCc1ccccc1 | HeLa expressing Ub(G76V)-GFP | Ub(G76V)-GFP degradation, cycloheximide chase | 2.5 µM | baseline: DMSO | remaining activity | 8.6% |
| COc1ccccc1S(=O)(=O)Nc1ccc2c(c1)CN(C)C(=O)N2 | HBL-1 | – | 0.5 µM, 120 h | – | viability | 114% |
| O=C(O)CC[C@H](NC(=O)N[C@@H](CCCCNC(=O)CCCCCCC(=O)NCCCC[C@@H](NC(=O)[C@H](CCC(=O)O)NC(=O)[C@H](CCC(=O)O)NC(=O)CCC(=O)NCCCN1CC[S][Tc]2(=[O])[S]CC[N]2CC1)C(=O)O)C(=O)O)C(=O)O (some centres unmarked) [technetium-99m labelled] | LNCaP | – | 25 nM, 1 h, 37 °C | – | internalized activity | 2.89 ± 0.21 %AD/mg protein |
| CCn1cc(-c2cc(Cn3ccnc3)cc3c2CCN([C@H](c2cc(OC)ccn2)C2CC2)C3=O)c(C(F)(F)F)n1 | RPMI-7951 | cell growth, inhibitor | 120 h | – | EC50 | 16 µM |
| Cc1cnc2ccc3c(c2n1)N1CCC(O)N=C1N3C (centres unmarked) | BALB/c 3T3 | – | 100 µM | baseline: solvent control | relative colony forming efficiency | 0% |
| CCCCN1C[C@H](O)[C@@H](O)[C@@H](O)[C@H]1CO | sample BC patient fibroblasts | Gb3 level lowering, LC-MS/MS, refers to: Gb3 d18:1/24:0 | 216 h | – | IC50 | 22.2 µM |
| COc1cc2c(NC3CCN(C4CCCCC4)CC3)nc(N3CCCN(C(C)C)CC3)nc2cc1OCCCN1CCCCC1 | HBL-1 | – | 0.5 µM, 120 h | – | viability | 142% |
| Nc1ccc2cc3ccc(N)cc3nc2c1 | BT-12 | cell viability, MTT | 10 µM, 72 h | – | inhibition | 94.9% |
| O=C(CCCN1C(=O)c2cccc3cccc(c23)C1=O)NO | HBL-1 | – | 0.5 µM, 120 h | – | viability | 117% |
| Cc1cc(Nc2ncc(Cl)c(Nc3ccccc3S(=O)(=O)C(C)C)n2)c(OC(C)C)cc1C1CCNCC1 | Ba/F3 TPM3-TRKA | cell viability | – | – | IC50 | 1.18 µM |
| CCCOc1nc(-c2cccc(O)c2)cc(-c2cc3cc(OC)ccc3nc2N2CCOCC2)c1C#N | WI-38 | cell viability, MTT | 72 h | – | EC50 | 0.107 ± 0.002 µM |
| c1ccc2[nH]ccc2c1 | HCT-8 | RNA-seq, refers to: BHLHE40 | concentration not given | – | mRNA level, LS mean | 6.99 counts per million |
| COc1ccc(OC)c2c(=S)c3ccccc3[nH]c12 | HeLa expressing Ub(G76V)-GFP | Ub(G76V)-GFP degradation, cycloheximide chase | 12 µM | – | inhibition | -6% |
| Nc1ccccc1NC(=O)CCCCCCC(=O)Nc1ccccc1 | HBL-1 | – | 1 µM, 120 h | – | viability | 85.4% |
| Cn1cc(-c2ccc(-c3cncc(Cl)c3N3CCC4(CCNC4=O)CC3)cc2)cn1 | COLO 205 | gene expression, microarray, refers to: C1orf61 mRNA | concentration not given, 6 h | baseline: untreated cells | log2 fold change | -2.7 |
| Oc1cc(O)cc(/C=C/c2ccc(O)c(O)c2)c1 | HBL-1 | – | 0.5 µM, 120 h | – | viability | 128% |
| C=C1C(=O)O[C@H]2[C@H]1CC/C(C)=C/CC[C@@]1(C)O[C@@H]21 | BT-12 | cell viability, MTT | 10 µM, 72 h | – | inhibition | 94.8% |
| Nc1ncnc2c1ncn2[C@@H]1C=C(CO)[C@@H](O)[C@H]1O | HBL-1 | – | 0.1 µM, 120 h | – | viability | 97.6% |
| CC(=O)Nc1cccc(-n2c(=O)n(C3CC3)c(=O)c3c(Nc4ccc(I)cc4F)n(C)c(=O)c(C)c32)c1 | NCI-H2087 (BRAF L597V) | – | 50.00 nM | baseline: DMSO | fractional effect | 0.635 |

Some of these lines once more:
| SMILES | cell line | assay | setting | how to read | measurement | result |
| --- | --- | --- | --- | --- | --- | --- |
| CC(=O)Nc1cccc(-n2c(=O)n(C3CC3)c(=O)c3c(Nc4ccc(I)cc4F)n(C)c(=O)c(C)c32)c1 | NCI-H2087 (BRAF L597V) | – | 50.00 nM | baseline: DMSO | fractional effect | 0.635 |
